Measured values from different studies.
Compare with care: the assays were run in different laboratories. “And” joins repeats or separate records; there may be more than shown. ± marks the error that the study gave.
Chain of UniProt Q9Y6I4 (whole entry, looked up): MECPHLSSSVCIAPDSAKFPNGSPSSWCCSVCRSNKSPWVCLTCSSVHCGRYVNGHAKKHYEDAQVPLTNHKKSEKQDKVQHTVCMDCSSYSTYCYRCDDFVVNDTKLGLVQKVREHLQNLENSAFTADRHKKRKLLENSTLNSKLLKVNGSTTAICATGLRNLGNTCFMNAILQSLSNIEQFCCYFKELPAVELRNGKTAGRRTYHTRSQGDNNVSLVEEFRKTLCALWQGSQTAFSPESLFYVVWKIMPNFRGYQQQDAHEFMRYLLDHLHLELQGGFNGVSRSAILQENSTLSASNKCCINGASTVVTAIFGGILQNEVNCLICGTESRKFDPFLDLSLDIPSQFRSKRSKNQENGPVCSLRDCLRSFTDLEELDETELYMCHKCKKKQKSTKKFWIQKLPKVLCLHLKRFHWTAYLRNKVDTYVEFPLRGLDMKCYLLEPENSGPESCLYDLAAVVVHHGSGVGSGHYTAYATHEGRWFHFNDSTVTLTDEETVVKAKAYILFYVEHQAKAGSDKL

| SMILES | target or system | test | system | conditions | how to read | endpoint | result |
| --- | --- | --- | --- | --- | --- | --- | --- |
| COc1ncc(-c2nc3c(n2C(C)C)[C@H](c2ccc(Cl)cc2)N(c2cc(Cl)cn(C)c2=O)C3=O)c(OC)n1 |  |  | human patients, plasma | oral, 200 mg, high-dose arm, cycle 1 day 1 |  | median Tmax | 3 h |
| COc1ccc2[nH]c([S+]([O-])Cc3ncc(C)c(OC)c3C)nc2c1 (stereo not shown) |  |  | healthy Chinese volunteers, plasma | oral, 20 mg, fasted, all CYP2C19 genotypes |  | Cmax | 661 ± 583 ng/mL |
| O=C(O)CCCOc1ccc([18F])cc1-c1cc(-c2ccccc2C(F)(F)F)n(-c2ccccc2)n1 |  | 18F biodistribution | male ddY mouse, whole blood | intravenous, 2.1 MBq, 15 min |  | blood radioactivity | 0.12 ± 0.01 SUV |
| OC[C@H]1O[C@@H](c2ccc(F)c(Cc3cc4ccccc4s3)c2)[C@H](O)[C@@H](O)[C@@H]1O |  |  | Japanese type 1 diabetes patients | oral, 100 mg/day, day 2 |  | hypoglycaemia adverse events | 6 % patients |
| C[C@H](NC(=O)/C(C#N)=C/c1cccc(Br)n1)c1ccccc1 |  | LC-MS/MS | patients, plasma | oral, 1 mg/kg, cycle 1 day 8 |  | half-life | 1.2 h |
| CC(C)(C(=O)N1CCOc2c(C#N)cncc2C1)C(F)F |  | refers to: haematochezia | human, both sexes | oral, 15 mg twice daily, 14 days, multiple ascending dose |  | subjects with TEAE | 0% |
| C[C@@H](N)C1CCN(S(=O)(=O)c2cccc3cnccc23)CC1 |  | refers to: Headache | healthy volunteers | 150 mg, fed |  | TEAE incidence | 20% |
| Cn1ncnc1[C@H]1c2n[nH]c(=O)c3cc(F)cc(c23)N[C@@H]1c1ccc(F)cc1 |  |  | human patients, plasma | oral, 600 µg/m2 twice daily, day 1, monotherapy, dose level DL4, median |  | AUC(0-8h) | 20.3 ng·h/mL |
| CCO[C@H]1CCN(Cc2c(OC)cc(C)c3[nH]ccc23)[C@H](c2ccc(C(=O)O)cc2)C1 |  |  | human moderate hepatic impairment, plasma | oral, 200 mg single dose, geometric mean |  | total AUC(0-t) | 52900 ng·h/mL |
| C=CC(=O)NC1CCN(c2ncc3ncnc(Nc4ccc(Oc5ccc6c(c5)ncn6C)c(C)c4)c3n2)CC1 |  |  | healthy male humans | oral, dose not given, with: carbamazepine | relative to: with over without carbamazepine | AUC(0-tz) ratio | 36.5% |
| Cc1cc(NC2CCN(C(=O)OC3CCN(C(=O)/C=C/CN(C)C)C3)CC2)n2ncc(C(C)C)c2n1 (stereo not shown) |  | Phase I dose escalation CTCAE v4.0, refers to: pain in extremity | patients with advanced solid tumours | dose not given, Total dosing any grade |  | patients with adverse event | 6% |
| O=C(Nc1nc2cccc(-c3ccc(CN4CCS(=O)(=O)CC4)cc3)n2n1)C1CC1 |  | refers to: pyrexia | rheumatoid arthritis patients | oral, 300 mg once daily, 4 weeks, any relatedness |  | treatment-emergent adverse events | 5% |
| C#C[C@]1(CO)O[C@@H](n2cnc3c(N)nc(F)nc32)C[C@@H]1O |  |  | human, plasma | oral, 30 mg single dose, extrapolated beyond 96 h |  | AUC(0-168 h) | 3.68 µM·h |
| CCc1c(-c2ccccc2)c(-c2ccccc2)nn1-c1ccccc1-c1cccc(OCC(=O)O)c1 |  |  | Sprague-Dawley rat, small intestine | oral, 10 mg/kg, 1 h |  | concentration | 30100 ng/g and 28100 ng/g |
| NC1(C(=O)N[C@@H](CCO)c2ccc(Cl)cc2)CCN(c2nc[nH]c3nccc2-3)CC1 |  |  | metastatic CRPC patients | 320 mg b.i.d., grade 3 to 4, treatment-related, with: enzalutamide 160 mg daily |  | incidence of blood creatinine increased | 0% |
| CC(C)C[C@H](NC(=O)[C@H](N)C(C)C)C(=O)N[C@@H](CCCNC(=N)N)C(=O)N[C@@H](Cc1c[nH]c2ccccc12)C(=O)N[C@@H](CO)C(=O)N[C@@H](CCCNC(=N)N)C(=O)N[C@@H](CCCCN)C(=O)N[C@@H](CC(C)C)C(=O)N1CCC[C@H]1C(=O)N[C@@H](CS)C(=O)N[C@H](C(=O)N[C@@H](CO)C(N)=O)C(C)C |  | 12G5 competition, SUP-T1 cells | human plasma | concentration not given, 8 h |  | remaining activity | 60 ± 4% |
| CN(CCC#N)C(=O)c1ccc([C@H]2[C@@H](F)[C@@H](F)C[C@@H](F)[C@H]2F)cc1 |  | liver microsome stability | mouse liver microsomes | 1 µM |  | hepatic clearance | 43 mL/min/kg |
| C[C@]12CC[C@@H]3c4ccc(O)cc4CC[C@H]3[C@@H]1CCC2=O |  |  | whole cow milk | 200 nM nominal |  | dose fraction in skim milk | 23.4% |
| CC(C)[C@H](NC(=O)[C@@H](NC(=O)CCCc1cn(CC(O)CN2CCN(CC(=O)O)CCN(CC(=O)O)CCN(CC(=O)O)CC2)nn1)[C@@H](C)O)C(=O)N[C@@H](CCCNC(=N)N)C(=O)N[C@H](C(=O)N[C@@H](CO)C(=O)N[C@@H](C)C(=O)N[C@@H](CC(=O)O)C(=O)O)[C@@H](C)O (stereo partly shown) |  |  | healthy male humans, plasma | intravenous, 0.04 mmol/kg |  | volume of distribution | 0.177 ± 0.041 L/kg |
| Cc1cn(C(=O)c2c(-c3c(Cl)cc(Cl)cc3Cl)noc2C(C)(C)F)c2cccc(/C=C/C(=O)O)c12 |  |  | human patients | 700 mg bid, cycle 1 day 1 |  | AUC(0-8h) | 125000 ng·h/mL |
| COc1c(Nc2cc(C(F)(F)F)cc(C(F)(F)F)c2)c(=O)c1=O |  | chemical stability, HPLC-MS | borate buffered saline | pH 10.2, no N-acetyl-lysine |  | degradation rate constant | 0.1 h⁻¹ |
| CC(C)c1c(C(=O)Nc2ccccc2)c(-c2ccccc2)c(-c2ccc(F)cc2)n1CC[C@@H](O)C[C@@H](O)CC(=O)O |  |  | healthy human subjects | oral, dose not given, treatment-emergent adverse events |  | share of subjects with adverse events | 8.3% |
| C=CC(=O)Nc1cc(Nc2nccc(-c3cn(C)c4ccccc34)n2)c(OC)cc1N(C)CCN(C)C |  | storage stability | human dried blood spots | 72 h, -80 °C, LLOQ level |  | recovery | 91.9% |
| CCOc1c([C@H](C)n2nc(C)c3c(N)ncnc32)cc(Cl)c(F)c1[C@@H]1CNC(=O)C1 |  | linear mixed-effects model | human B-cell malignancy patients, plasma | oral |  | concentration-ΔQTcF slope | 0.00176 ms/nM |
| O=C(Cn1ccnc1)Nc1ccc([C@H]2[C@@H](F)[C@@H](F)C[C@@H](F)[C@H]2F)cc1 |  |  | cynomolgus liver microsomes | 1 µM |  | hepatic clearance | 4.9 mL/min/kg |
| O=C(O)CNC(=O)c1ccc(C(=O)N2CCC(c3ccc(Cl)cc3)CC2)cn1 | Ubiquitin carboxyl-terminal hydrolase 3, ZnF-UBD domain (USP3, Homo sapiens, UniProt Q9Y6I4) |  |  |  |  | Kd | 344 µM |

| SMILES | target or system | test | system | conditions | how to read | endpoint | result |
| --- | --- | --- | --- | --- | --- | --- | --- |
| FC(F)(F)CN1CC(n2cc(Oc3ccn4nc(Cl)cc4n3)cn2)C1 |  |  | Crl:CD(SD) rat, male | oral, 150 mg/kg/day, 14-day repeat-dose toxicology |  | day of premature euthanasia | 8 days |
| CN(Cc1cccnc1)C(=O)c1ccc(C2CCCCC2)cc1 |  | hepatocyte stability | cryopreserved mouse hepatocytes | 1 µM |  | hepatic clearance | 72 mL/min/kg |
| COc1cc(Nc2ncc3c(n2)-c2ccc(Cl)cc2C(c2c(F)cccc2OC)=NC3)ccc1C(=O)O |  |  | patients | oral, dose not given, grade 3, any attribution, with: pembrolizumab |  | decreased platelet count incidence | 8% |
| CNC(=O)c1ccc(-c2cnc3ncc(Cc4ccc5ncccc5c4)n3n2)cc1F |  | refers to: Cough | gastric cancer patients | oral, 600 mg twice daily, expansion cohort, grade 3-4 |  | patients with adverse event | 0% |
| Fc1ccc(CCCCN2CCN(c3ccccn3)CC2)cc1 |  | bar test | Sprague-Dawley rat | intraperitoneal, 60 min |  | highest dose without catalepsy | 75 mg/kg |
| CCN1/C(=C/C(C)=O)Sc2ccc(F)cc21 |  |  | cynomolgus monkey | oral, 10 mg/kg, 0.5 h post-dose |  | QRS duration | 36 ± 2 ms |
| O=C(N[C@H](Cc1c[nH]c2ccccc12)C(=O)Nc1ccncc1)c1ccc(-c2ccc(F)c(Cl)c2)cc1F |  |  | Swiss Webster mouse, female, intestine | oral, 50 mg/kg, 2 h, 20% HPβCD vehicle |  | concentration | 90 nM |
| CN(C)CCCNC(=O)/C(=C/CCCCC(=O)NO)COc1cccc2ccccc12 |  |  | human patients | intravenous, 250 mg/m2, day 1, single dose, mean |  | volume of distribution at steady state | 46.4 L |
| N#Cc1ccc2c(c1)[C@H]1CCCN(C(=O)c3ccc4[nH]cnc4c3)[C@H]1C2 |  |  | human, male | 80 mg, day 7 |  | androstenedione level | 9.7 nmol/L |
| Cc1cc(Nc2ccc(S(F)(F)(F)(F)F)cc2)n2nc(C(C)(F)F)nc2n1 |  |  | CD-1 mouse, female, whole blood | oral, 300 mg/kg daily, 24 h after dose 10, spray-dried dispersion |  | blood concentration | 140000 ± 101000 nM |
| O=C(NCCc1cccnc1)c1ccc(C2CCCCC2)cc1 |  | liver microsome stability | dog liver microsomes | 1 µM |  | hepatic clearance | 29 mL/min/kg |
| CO[C@H]1C[C@@H]2CC[C@@H](C)[C@@](O)(O2)C(=O)C(=O)N2CCCC[C@H]2C(=O)O[C@H]([C@H](C)C[C@@H]2CC[C@@H](O)[C@H](OC)C2)CC(=O)[C@H](C)/C=C(\C)[C@@H](O)[C@@H](OC)C(=O)[C@H](C)C[C@H](C)/C=C/C=C/C=C/1C |  |  | healthy adult horses | intravenous, 0.06 mg/kg, 2 h |  | heart rate | 34 ± 2.8 beats/min |
| O=C(Nc1ccc(Cl)cc1)Nc1ccc(Cl)c(Cl)c1 |  |  | whole cow milk | 20 nM nominal |  | dose fraction in skim milk | 10.1% |
| Cc1cc(Nc2ccc(S(F)(F)(F)(F)F)cc2)n2nc(C(C)(F)F)nc2n1 | Plasmodium vivax | 12-lead Holter ECG | human malaria patients | oral, 800 mg, QTc above 450 ms |  | patients with QTcB above threshold | 33.3% |
| c1ncc(-c2ccc(C3CCCCC3)cc2)cn1 |  | liver microsome stability | dog liver microsomes | 1 µM |  | hepatic clearance | 29 mL/min/kg |
| Cc1ccc([C@@H]2O[C@H](CO)[C@@H](O)[C@H](O)[C@H]2O)cc1Cc1ccc(-c2ccc(F)cc2)s1 |  |  | Japanese type 2 diabetes patients | 25 mg, day 6, 24 h urine collection | relative to: baseline | urinary calcium excretion change | -38.4 mg |
| O=C(O)CCC(=O)O.[2H]C([2H])([2H])Oc1cc(C)c2[nH]ccc2c1CN1CC[C@@H](C2CC2)C[C@H]1c1ccc(C(=O)O)cc1 |  | multiple ascending dose | healthy Chinese subjects | 125 mg twice daily |  | subjects with dental ulcer TEAE | 0% |
| O=C1NCCc2nc(OCc3cccc(F)c3)ccc21 |  | refers to: loss of Grasping | Sprague-Dawley rat male | oral, 100 mg/kg, 1 h | direction not given | Irwin test score | 0 |
| Cc1cc(-c2nnc(N)nc2-c2ccc(F)cc2)cc(Cl)n1 |  | refers to: Fatigue | human phase Ia/Ib colorectal cancer, immunotherapy-naive | oral, dose not given |  | patients with treatment-related adverse events | 36% |
| CN(C)CCC(=O)Nc1ccc([C@H]2[C@@H](F)[C@@H](F)C[C@@H](F)[C@H]2F)cc1 |  | liver microsome stability | rat liver microsomes | 1 µM |  | hepatic clearance | 40 mL/min/kg |
| Cn1nc2c(=O)n(C3CC3)cnc2c1[C@](O)(c1cnc(C(F)(F)F)c(Cl)c1)C(F)(F)F |  |  | humanized SCID mice, blood | 30 mg/kg once daily, 6 days, infected |  | AUC(0-96 h) | 923 µM·h |
| Cc1ccc(CCC(=O)Nc2nnc(S(N)(=O)=O)s2)cc1 |  |  | BALB/c mouse, male, plasma | oral, 20 mg/kg, 1 h |  | unbound plasma concentration | 0.882 ng/mL |
| CC(=O)N1CC(C(=O)Nc2ccc(C3CCCCC3)cc2)C1 |  | liver microsome stability | cynomolgus liver microsomes | 1 µM |  | hepatic clearance | 23 mL/min/kg |
| C[C@@H](N)COc1ccc(-c2cnc3ccc(N[C@H](C)c4cccc(F)c4)nn23)cc1 |  |  | female Balb/c nude mouse | 100 mg/kg once daily, 1 h, steady state |  | unbound plasma concentration | 450 ± 84 nM |
| Cn1cc(-c2cn3nccc3c(-c3cnn([C@]4(CC#N)C[C@@H](C#N)C4)c3)n2)cn1 |  |  | healthy humans fed, plasma | oral, 100 mg once daily, day 10, geometric mean | relative to: day 10 over day 1 | observed accumulation ratio | 1.1 |
| CN1CCN(C(=O)c2ccc([C@H]3[C@@H](F)[C@@H](F)C[C@@H](F)[C@H]3F)cc2)CC1 |  | liver microsome stability | human liver microsomes | 1 µM, without NADPH |  | hepatic clearance | 3.9 mL/min/kg |
